Measured values collected from several papers.
Lines come from different studies, so protocols differ. ± gives the spread as reported.

| Compound | test | test system | conditions | scale | measurement | result |
| --- | --- | --- | --- | --- | --- | --- |
| CC[C@H](C)C(=O)N1CCC(NC(=O)Nc2ccc(OC(F)(F)F)c(F)c2)CC1 | – | healthy volunteers | oral, 24 mg single dose, 14 (unit not given) | – | subjects with any AE | 66.7% |
| CC[C@H](C)[C@H](NC(=O)[C@H](C)NC(=O)[C@H](CCCCN)NC(=O)[C@H](CC(C)C)NC(=O)[C@@H](N)Cc1ccccc1)C(=O)N[C@@H](CCCCN)C(=O)N[C@@H](CCCCN)C(=O)N[C@@H](Cc1ccccc1)C(=O)NCC(=O)N[C@@H](CCCCN)C(=O)N[C@@H](CCC(=O)O)C(=O)N[C@@H](Cc1ccccc1)C(=O)N[C@@H](CCCCN)C(=O)N[C@@H](CCCCN)C(=O)N[C@H](C(=O)NCC(=O)N[C@@H](C)C(=O)N[C@@H](CCCCN)C(=O)N[C@@H](CC(C)C)C(=O)N[C@@H](CCCCN)C(=O)O)[C@@H](C)CC | – | BALB/c mice | – | baseline: compound over colistin | LD50 ratio | 5 |
| CN(C)C(CNC(=O)Nc1cc(C(F)(F)F)ccc1N1CCOCC1)c1ccncc1 (centres unmarked) | – | mouse, serum | intraperitoneal, 360 mg/kg single dose | – | serum total protein | 3.5 g/dL |
| Cc1ccc(/C=C/C(=O)O)cc1-c1cc2c(cc1C)C(C)(C)CCC2(C)C | – | Sprague-Dawley rat, male | oral, 100 mg/kg, 24 h, sesame oil vehicle | – | blood triglycerides | 109 ± 16.4 mg/dL |
| O=C(O)CCCN1CCN2CCN(CC1)CC(=O)[O][Al]([18F])[O]C(=O)C2 | – | Sprague-Dawley rat, normal, blood | iv, 10 min | – | blood uptake | 8.5 ± 0.8 %ID |
| COc1cc2c3c(c4cc(OC)c(OC)cc4c2cc1OC)CN1CCCCC1C3 (centres unmarked) | – | Sprague-Dawley rats, male | intravenous, dose not given | – | half-life | ~4 h |
| F[P-](F)(F)(F)(F)F.F[P-](F)(F)(F)(F)F.[Ru+2].c1ccc(-c2ccccn2)nc1.c1ccc(-c2ccccn2)nc1.c1csc(-c2ccc(-c3ccc(-c4cc5cccnc5c5ncccc45)s3)s2)c1 | – | – | wavelength 625 nm | – | molar absorptivity | < 100 M⁻¹ cm⁻¹ |
| CC(C)[C@@H](CN1CC[C@@](C)(c2cccc(C(N)=O)c2)[C@@H](C)C1)NC(=O)[C@H]1Cc2ccc(O)cc2CN1 | – | 10 mM phosphate buffer | 90 min, pH 7.4 | – | kinetic solubility | > 20% |
| CSCC[C@H](NC(=O)CNC(=O)[C@H](CC(=O)O)NC(=O)[C@@H](NC(=O)[C@@H](NC(=O)[C@@H](NC(=O)CNC(=O)[C@H](CCC(=O)O)NC(=O)[C@H](CCSC)NC(=O)[C@H](CC(=O)O)NC(=O)[C@H](C)NC(=O)[C@H](C)NC(=O)[C@@H](NC(=O)[C@H](CO)NC(=O)[C@@H](N)CC(C)C)[C@@H](C)O)C(C)C)C(C)C)[C@@H](C)O)C(=O)N[C@@H](C)C(=O)N[C@@H](CO)C(=O)NCC(=O)N[C@@H](CC(C)C)C(=O)N[C@@H](CC(=O)O)C(=O)N[C@@H](CCCCN)C(=O)N[C@@H](CC(=O)O)C(=O)N[C@@H](Cc1ccc(O)cc1)C(=O)N[C@@H](CC(C)C)C(=O)N[C@@H](CCCCN)C(=O)N1CCC[C@H]1C(=O)N[C@@H](CC(=O)O)C(=O)N[C@@H](CC(=O)O)C(=O)O | – | CD-1 mouse, male, serum | intravenous, 480 mg/kg, 1 h | – | serum concentration | 668 to 22500 ng/mL |
| N=C(N)NCc1ccc(C(=O)NCCCC[C@H](NC(=O)CCCCCCC(=O)NCCCC[C@H](NC(=O)N[C@@H](CCC(=O)O)C(=O)O)C(=O)O)C(=O)O)cc1[211At] | – | SCID mouse, PC-3 xenografts, brain | 2 h | – | tissue uptake | 0.08 ± 0.02 %ID/g |
| CC(C)[C@H](NC(=O)CNC(=O)[C@H](CCC(N)=O)NC(=O)[C@H](C)N)C(=O)O | – | human | intravenous infusion, 90 mg/kg/h, 2 h infusion | – | subjects with serious adverse events | 0% |
| COc1ccc(NC(=O)Cn2c(=O)c3ccccc3n(CC(=O)Nc3cc([125I])c(OC)cc3OC)c2=O)cc1 | – | rat, pancreas | intravenous, 30 min | – | tracer uptake | 0.14 %ID/g |
| CSCC[C@@H]1NC(=O)[C@@H]2CSSC[C@H](NC(=O)[C@H](CO)NC(=O)[C@H](C)N)C(=O)N[C@@H](CCCNC(=N)N)C(=O)N[C@@H]([C@@H](C)O)C(=O)N3CCC[C@H]3C(=O)N[C@@H](CCCCN)C(=O)N[C@@H](CC(=O)O)C(=O)N[C@H]3CSSC[C@H](NC(=O)[C@H](CCCCN)NC(=O)[C@H](CCCNC(=N)N)NC(=O)[C@H](CC(N)=O)NC1=O)C(=O)N[C@@H](CCCCN)C(=O)N[C@H]1CSSC[C@H](NC(=O)[C@@H]4CCCN4C(=O)[C@H](CC(=O)O)NC(=O)[C@H](C)NC3=O)C(=O)N[C@@H](C)C(=O)N[C@@H](CCCCN)C(=O)N[C@@H](CCC(=O)O)C(=O)N[C@@H]([C@@H](C)O)C(=O)NCC(=O)N[C@@H](CSSC[C@@H](C(N)=O)NC(=O)[C@H](CCCNC(=N)N)NC(=O)[C@H](CC(N)=O)NC1=O)C(=O)N1CCC[C@H]1C(=O)N[C@@H](Cc1ccc(O)cc1)C(=O)NCC(=O)N[C@@H](CCCCN)C(=O)N2 | – | DA rat pristane-induced arthritis, serum | subcutaneous, 0.1 mg/kg single dose at onset, 21 days | – | Triglycerides | 66 mg/dL |
| CCCCCCCCCCCCCC(=O)N[C@H](CCN)C(=O)N[C@@H]1C(=O)N[C@@H](CCN)C(=O)N[C@@H](CC(C)C)C(=O)N[C@@H](CCN)C(=O)N[C@H](Cc2ccccc2)C(=O)N[C@@H](CC(C)C)C(=O)N[C@@H](CCN)C(=O)N[C@H](CCN)C(=O)N[C@@H](C(C)C)C(=O)N[C@@H](CC(=O)O)C(=O)O[C@@H]1C | – | rat | – | baseline: subcutaneous over intravenous | half-life ratio | 2.4 fold |
| CC[C@H](C)[C@@H]1NC(=O)[C@H](CCCCN)NC(=O)[C@H](CCCCN)NC(=O)[C@H](Cc2ccc(O)cc2)NC(=O)[C@H](CC(C)C)NC(=O)[C@@H]2CCCN2C(=O)[C@H](C)NC(=O)CNC(=O)CNC(=O)[C@H](CO)NC(=O)CNC(=O)CNC(=O)[C@H](CO)NC(=O)[C@H](CCC(=O)O)NC(=O)[C@H](CC(C)C)NC(=O)[C@H](CC(C)C)NC(=O)[C@H](CCCCN)NC(=O)[C@H](CCCCN)NC(=O)[C@H]([C@@H](C)CC)NC(=O)[C@H]([C@@H](C)CC)NC(=O)[C@H](CCCCN)NC(=O)[C@H](CCCCN)NC(=O)[C@H](Cc2ccc(O)cc2)NC(=O)[C@H](CC(C)C)NC(=O)[C@@H]2CCCN2C(=O)[C@H](C)NC(=O)CNC(=O)[C@@H]2CSSC[C@H](NC(=O)[C@H](CC(C)C)NC(=O)[C@H](CCCCN)NC(=O)[C@H](CCCCN)NC(=O)[C@H]([C@@H](C)CC)NC1=O)C(=O)N[C@@H](CCCCN)C(=O)N[C@@H](CC(N)=O)C(=O)NCC(=O)N2 | hemolysis | uninfected human erythrocytes | 1 h | – | HC10 | 22.1 ± 2.4 µM |
| CC(C)[C@H](NC(=O)CNC(=O)[C@H](CCC(N)=O)NC(=O)[C@H](C)N)C(=O)O | – | healthy male volunteers | intravenous, 45 mg/kg/h, 2 h, added: LPS 2 ng/kg | – | subjects with Definitely related AE | 0% |
| CC(=O)[O-].CN1CCCN2CCN(CCCN(Cc3ccccc3)CC2)CC1.F[P-](F)(F)(F)(F)F.[Co+2] | cyclic voltammetry, item: first Co2+/Co3+ couple | acetonitrile | – | baseline: SHE | E1/2 | 0.293 V |
| CCOC(=O)[C@@H]1Cc2c(cc([N+](=O)[O-])cc2[N+](=O)[O-])[C@H](O)[C@]12C(=O)Nc1ccc(Br)cc12 | – | Sprague-Dawley rat, plasma | intravenous, 7.5 mg/kg | – | Vd | 7.36 L/kg |
| COC(=O)C[C@](O)(CCCC(C)(C)OC(C)=O)C(=O)O[C@@H]1C(OC)=C[C@]23CCCN2CCc2cc4c(cc2[C@H]13)OCO4 | – | CD1 mouse, stomach | oral, 1 mg/kg, 8 h | – | tissue concentration | 39.6 ng/mL |
| [2H]C([2H])([2H])C([2H])([2H])C([2H])([2H])OC(C(=O)OC1CCNCC1)(c1ccccc1)c1ccccc1 | – | male human, plasma | oral, 12 mg, multiple doses | – | Tmax | 4 h |

Repeated from above:
| Compound | test | test system | conditions | scale | measurement | result |
| --- | --- | --- | --- | --- | --- | --- |
| CC(C)[C@H](NC(=O)CNC(=O)[C@H](CCC(N)=O)NC(=O)[C@H](C)N)C(=O)O | – | human | intravenous infusion, 90 mg/kg/h, 2 h infusion | – | subjects with serious adverse events | 0% |
| COc1ccc(NC(=O)Cn2c(=O)c3ccccc3n(CC(=O)Nc3cc([125I])c(OC)cc3OC)c2=O)cc1 | – | rat, pancreas | intravenous, 30 min | – | tracer uptake | 0.14 %ID/g |
| CSCC[C@@H]1NC(=O)[C@@H]2CSSC[C@H](NC(=O)[C@H](CO)NC(=O)[C@H](C)N)C(=O)N[C@@H](CCCNC(=N)N)C(=O)N[C@@H]([C@@H](C)O)C(=O)N3CCC[C@H]3C(=O)N[C@@H](CCCCN)C(=O)N[C@@H](CC(=O)O)C(=O)N[C@H]3CSSC[C@H](NC(=O)[C@H](CCCCN)NC(=O)[C@H](CCCNC(=N)N)NC(=O)[C@H](CC(N)=O)NC1=O)C(=O)N[C@@H](CCCCN)C(=O)N[C@H]1CSSC[C@H](NC(=O)[C@@H]4CCCN4C(=O)[C@H](CC(=O)O)NC(=O)[C@H](C)NC3=O)C(=O)N[C@@H](C)C(=O)N[C@@H](CCCCN)C(=O)N[C@@H](CCC(=O)O)C(=O)N[C@@H]([C@@H](C)O)C(=O)NCC(=O)N[C@@H](CSSC[C@@H](C(N)=O)NC(=O)[C@H](CCCNC(=N)N)NC(=O)[C@H](CC(N)=O)NC1=O)C(=O)N1CCC[C@H]1C(=O)N[C@@H](Cc1ccc(O)cc1)C(=O)NCC(=O)N[C@@H](CCCCN)C(=O)N2 | – | DA rat pristane-induced arthritis, serum | subcutaneous, 0.1 mg/kg single dose at onset, 21 days | – | Triglycerides | 66 mg/dL |
